# Measured values from different studies.
# Each numbered part is a random draw from the data of one study; scales do not carry over between parts.
# Chain of UniProt Q15349 (whole entry, looked up): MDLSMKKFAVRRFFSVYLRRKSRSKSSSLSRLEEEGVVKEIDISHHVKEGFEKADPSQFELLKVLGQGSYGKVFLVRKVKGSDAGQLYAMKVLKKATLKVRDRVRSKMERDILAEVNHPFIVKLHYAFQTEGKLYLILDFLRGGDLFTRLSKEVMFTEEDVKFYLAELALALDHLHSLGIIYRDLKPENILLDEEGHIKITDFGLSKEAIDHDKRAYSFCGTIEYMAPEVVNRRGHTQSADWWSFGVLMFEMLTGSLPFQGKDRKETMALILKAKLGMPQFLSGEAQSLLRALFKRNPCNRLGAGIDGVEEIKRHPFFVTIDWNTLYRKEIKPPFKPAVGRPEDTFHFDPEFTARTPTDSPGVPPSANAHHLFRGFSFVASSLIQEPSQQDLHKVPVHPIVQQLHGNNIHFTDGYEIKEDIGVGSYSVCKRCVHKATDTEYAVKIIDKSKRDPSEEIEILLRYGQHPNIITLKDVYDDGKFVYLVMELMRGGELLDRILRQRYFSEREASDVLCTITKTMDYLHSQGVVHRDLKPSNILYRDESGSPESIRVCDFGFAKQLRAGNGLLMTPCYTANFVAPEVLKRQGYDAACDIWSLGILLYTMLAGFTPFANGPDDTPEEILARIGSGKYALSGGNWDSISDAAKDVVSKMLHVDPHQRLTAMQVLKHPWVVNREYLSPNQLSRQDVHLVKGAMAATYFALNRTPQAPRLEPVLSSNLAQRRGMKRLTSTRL
# Chain of UniProt Q04912 (whole entry, looked up): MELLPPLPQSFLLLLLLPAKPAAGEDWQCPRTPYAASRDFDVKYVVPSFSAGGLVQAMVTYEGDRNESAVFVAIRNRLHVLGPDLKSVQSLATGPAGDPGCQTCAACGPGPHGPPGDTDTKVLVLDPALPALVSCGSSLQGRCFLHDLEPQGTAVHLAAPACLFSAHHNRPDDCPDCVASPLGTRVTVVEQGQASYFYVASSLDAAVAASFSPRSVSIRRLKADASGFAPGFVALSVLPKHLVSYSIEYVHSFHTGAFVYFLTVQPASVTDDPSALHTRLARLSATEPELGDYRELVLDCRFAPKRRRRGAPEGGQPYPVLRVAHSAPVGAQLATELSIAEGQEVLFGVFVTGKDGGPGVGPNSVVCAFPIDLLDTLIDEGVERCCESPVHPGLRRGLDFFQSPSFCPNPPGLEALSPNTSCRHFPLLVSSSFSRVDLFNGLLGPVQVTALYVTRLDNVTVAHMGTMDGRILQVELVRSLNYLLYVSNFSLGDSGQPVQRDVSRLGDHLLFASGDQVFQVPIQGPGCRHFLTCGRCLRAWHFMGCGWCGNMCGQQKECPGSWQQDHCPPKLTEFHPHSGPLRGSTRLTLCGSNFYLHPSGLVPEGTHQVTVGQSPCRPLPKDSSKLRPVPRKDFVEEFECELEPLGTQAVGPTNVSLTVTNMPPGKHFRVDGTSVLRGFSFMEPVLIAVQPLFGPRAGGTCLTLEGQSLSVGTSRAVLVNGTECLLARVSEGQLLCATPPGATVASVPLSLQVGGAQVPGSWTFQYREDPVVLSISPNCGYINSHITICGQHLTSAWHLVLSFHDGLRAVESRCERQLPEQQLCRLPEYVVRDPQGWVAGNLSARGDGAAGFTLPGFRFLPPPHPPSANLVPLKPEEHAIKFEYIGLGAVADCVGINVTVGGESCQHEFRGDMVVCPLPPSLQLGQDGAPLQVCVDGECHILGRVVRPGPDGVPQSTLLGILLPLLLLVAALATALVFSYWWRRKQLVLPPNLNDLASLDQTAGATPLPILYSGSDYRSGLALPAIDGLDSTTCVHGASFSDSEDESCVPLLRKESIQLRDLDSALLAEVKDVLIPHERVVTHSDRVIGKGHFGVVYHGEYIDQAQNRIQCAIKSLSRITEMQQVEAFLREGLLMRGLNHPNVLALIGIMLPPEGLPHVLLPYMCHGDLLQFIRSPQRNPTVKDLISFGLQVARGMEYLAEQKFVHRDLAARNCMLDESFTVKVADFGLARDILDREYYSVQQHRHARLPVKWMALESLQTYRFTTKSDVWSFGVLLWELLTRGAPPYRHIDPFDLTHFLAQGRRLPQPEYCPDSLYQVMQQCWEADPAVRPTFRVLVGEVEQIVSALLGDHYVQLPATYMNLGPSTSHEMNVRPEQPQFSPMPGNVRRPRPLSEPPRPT
# Chain of UniProt Q12866 (whole entry, looked up): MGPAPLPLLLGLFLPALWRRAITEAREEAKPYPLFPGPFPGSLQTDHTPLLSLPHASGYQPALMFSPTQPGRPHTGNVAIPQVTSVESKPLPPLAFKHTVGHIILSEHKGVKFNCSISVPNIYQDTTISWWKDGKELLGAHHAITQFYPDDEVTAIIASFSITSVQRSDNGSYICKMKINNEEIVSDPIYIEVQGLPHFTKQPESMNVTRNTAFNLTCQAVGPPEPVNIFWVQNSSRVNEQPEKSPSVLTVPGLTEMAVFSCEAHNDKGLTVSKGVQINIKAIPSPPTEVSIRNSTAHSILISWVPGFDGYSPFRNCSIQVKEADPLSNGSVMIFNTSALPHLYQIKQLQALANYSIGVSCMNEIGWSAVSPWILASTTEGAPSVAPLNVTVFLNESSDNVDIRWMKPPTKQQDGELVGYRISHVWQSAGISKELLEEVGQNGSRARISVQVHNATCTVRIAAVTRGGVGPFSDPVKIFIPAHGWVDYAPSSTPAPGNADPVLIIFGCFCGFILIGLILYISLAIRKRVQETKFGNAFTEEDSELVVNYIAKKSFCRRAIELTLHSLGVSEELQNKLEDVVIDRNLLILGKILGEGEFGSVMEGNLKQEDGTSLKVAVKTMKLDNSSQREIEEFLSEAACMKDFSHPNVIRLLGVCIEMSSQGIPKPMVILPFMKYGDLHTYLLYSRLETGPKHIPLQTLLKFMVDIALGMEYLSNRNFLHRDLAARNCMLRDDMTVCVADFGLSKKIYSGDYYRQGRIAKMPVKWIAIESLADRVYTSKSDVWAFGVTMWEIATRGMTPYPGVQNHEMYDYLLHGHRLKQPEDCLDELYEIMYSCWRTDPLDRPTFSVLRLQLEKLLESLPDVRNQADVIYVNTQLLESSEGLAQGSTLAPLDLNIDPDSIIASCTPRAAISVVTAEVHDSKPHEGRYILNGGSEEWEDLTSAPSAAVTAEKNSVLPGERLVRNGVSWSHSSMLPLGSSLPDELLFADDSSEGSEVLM
# Chain of UniProt Q16512 (whole entry, looked up): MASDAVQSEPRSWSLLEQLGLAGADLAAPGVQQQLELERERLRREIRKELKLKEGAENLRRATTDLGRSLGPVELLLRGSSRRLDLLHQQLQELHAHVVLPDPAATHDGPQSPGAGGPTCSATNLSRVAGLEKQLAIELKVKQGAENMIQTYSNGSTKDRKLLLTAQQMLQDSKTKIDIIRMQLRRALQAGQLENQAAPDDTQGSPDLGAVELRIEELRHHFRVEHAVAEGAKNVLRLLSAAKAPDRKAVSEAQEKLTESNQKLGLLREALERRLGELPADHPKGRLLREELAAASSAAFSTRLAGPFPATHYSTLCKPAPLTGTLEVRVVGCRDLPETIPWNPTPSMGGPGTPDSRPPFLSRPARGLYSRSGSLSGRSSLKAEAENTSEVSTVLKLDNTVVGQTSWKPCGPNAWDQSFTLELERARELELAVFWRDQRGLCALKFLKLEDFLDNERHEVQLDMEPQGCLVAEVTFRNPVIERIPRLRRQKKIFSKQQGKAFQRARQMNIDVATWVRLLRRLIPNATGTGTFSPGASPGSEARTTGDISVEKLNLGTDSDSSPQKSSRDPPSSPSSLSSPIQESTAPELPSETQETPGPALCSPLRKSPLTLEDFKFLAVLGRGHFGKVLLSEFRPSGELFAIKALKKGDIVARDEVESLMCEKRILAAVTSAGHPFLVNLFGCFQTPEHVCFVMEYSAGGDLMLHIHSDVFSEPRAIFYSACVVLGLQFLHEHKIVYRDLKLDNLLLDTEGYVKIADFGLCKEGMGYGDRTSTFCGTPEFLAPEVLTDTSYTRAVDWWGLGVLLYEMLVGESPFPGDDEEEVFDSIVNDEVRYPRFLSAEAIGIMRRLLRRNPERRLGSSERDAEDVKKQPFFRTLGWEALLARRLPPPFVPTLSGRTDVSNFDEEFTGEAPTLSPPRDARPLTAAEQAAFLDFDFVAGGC
# Chain of UniProt P49841 (whole entry, looked up): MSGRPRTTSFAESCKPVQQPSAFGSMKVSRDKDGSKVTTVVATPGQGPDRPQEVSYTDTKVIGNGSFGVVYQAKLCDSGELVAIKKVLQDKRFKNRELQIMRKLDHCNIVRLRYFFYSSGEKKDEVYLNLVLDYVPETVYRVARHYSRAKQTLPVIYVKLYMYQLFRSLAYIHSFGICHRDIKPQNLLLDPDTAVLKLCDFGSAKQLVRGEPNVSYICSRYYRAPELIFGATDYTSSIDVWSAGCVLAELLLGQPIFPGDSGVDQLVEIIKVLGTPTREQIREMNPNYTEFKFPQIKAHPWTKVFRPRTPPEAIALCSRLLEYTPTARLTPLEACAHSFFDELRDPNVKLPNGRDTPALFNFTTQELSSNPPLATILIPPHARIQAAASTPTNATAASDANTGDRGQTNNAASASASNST

# Study 1
# Structure (SMILES): CO[C@H]1CC[C@H](CNc2ccc(S(=O)(=O)NC(=O)c3ccc(N4CCN(CC5=C(c6ccc(Cl)cc6)CC(C)(C)CC5)CC4)cc3Oc3cnc4[nH]ccc4c3)cc2[N+](=O)[O-])CC1
# Effect on: cell-free assay
# Technique: competition with immobilised ligand
# Concentration: 1 µM
target,remaining binding [%]
"EGFR (Homo sapiens, UniProt P00533, G719S)",65
"DYRK1A (Homo sapiens, UniProt Q13627)",65
"SNRK (Homo sapiens, UniProt Q9NRH2)",100
"MET (Homo sapiens, UniProt P08581)",68
"CDKL5 (Homo sapiens, UniProt O76039)",74
"Ribosomal protein S6 kinase alpha-3, N-terminal kinase domain (RPS6KA3, Homo sapiens, UniProt P51812)",71
"NLK (Homo sapiens, UniProt Q9UBE8)",100
"NEK10 (Homo sapiens, UniProt Q6ZWH5)",100
"PIK3CD (Homo sapiens, UniProt O00329)",75
"Ribosomal protein S6 kinase alpha-2, C-terminal kinase domain (RPS6KA2, Homo sapiens, UniProt Q15349)",71
"PKN1 (Homo sapiens, UniProt Q16512)",83
"Tyrosine-protein kinase ABL1, phosphorylated (ABL1, Homo sapiens, UniProt P00519, M351T)",85

# Study 2
# Compound: O=C(NC(NC(=S)Nc1ccc(F)c([N+](=O)[O-])c1)C(Cl)(Cl)Cl)C(c1ccccc1)c1ccccc1 (stereo not drawn)
# Effect on: enzyme activity
# Mode: inhibitor
# Concentration: 0.5 µM
# Baseline: control
target,remaining activity [%]
"TAOK2 (Homo sapiens, UniProt Q9UL54)",103
"GSK3B (Homo sapiens, UniProt P49841)",109
"MAP3K5 (Homo sapiens, UniProt Q99683)",97.1
"NEK1 (Homo sapiens, UniProt Q96PY6)",101
"MST1R (Homo sapiens, UniProt Q04912)",102
"LCK (Homo sapiens, UniProt P06239)",91.8
"MERTK (Homo sapiens, UniProt Q12866)",96.2
"JAK3 (Homo sapiens, UniProt P52333)",110
"GRK7 (Homo sapiens, UniProt Q8WTQ7)",101
"TBK1 (Homo sapiens, UniProt Q9UHD2)",98.7
"CSNK1G2 (Homo sapiens, UniProt P78368)",98.3
"FGFR3 (Homo sapiens, UniProt P22607)",96.8
"MAP3K14 (Homo sapiens, UniProt Q99558)",92.1
"MAPKAPK2 (Homo sapiens, UniProt P49137)",96.3
"CSNK1G3 (Homo sapiens, UniProt Q9Y6M4)",87.7
"NEK6 (Homo sapiens, UniProt Q9HC98)",109
"RPS6KA2 (Homo sapiens, UniProt Q15349)",101
"FGFR1 (Homo sapiens, UniProt P11362)",97.7
"MAP2K2 (Homo sapiens, UniProt P36507)",82.3
"EPHA3 (Homo sapiens, UniProt P29320)",105
"ACVR1B (Homo sapiens, UniProt P36896)",106
"TEK (Homo sapiens, UniProt Q02763)",97.8
"FRK (Homo sapiens, UniProt P42685)",103
"MAPK3 (Homo sapiens, UniProt P27361)",120

# Study 3
# Target: Calcium/calmodulin-dependent protein kinase type II subunit alpha (CAMK2A, Homo sapiens, UniProt Q9UQM7)
# Chain of UniProt Q9UQM7 (whole entry, looked up): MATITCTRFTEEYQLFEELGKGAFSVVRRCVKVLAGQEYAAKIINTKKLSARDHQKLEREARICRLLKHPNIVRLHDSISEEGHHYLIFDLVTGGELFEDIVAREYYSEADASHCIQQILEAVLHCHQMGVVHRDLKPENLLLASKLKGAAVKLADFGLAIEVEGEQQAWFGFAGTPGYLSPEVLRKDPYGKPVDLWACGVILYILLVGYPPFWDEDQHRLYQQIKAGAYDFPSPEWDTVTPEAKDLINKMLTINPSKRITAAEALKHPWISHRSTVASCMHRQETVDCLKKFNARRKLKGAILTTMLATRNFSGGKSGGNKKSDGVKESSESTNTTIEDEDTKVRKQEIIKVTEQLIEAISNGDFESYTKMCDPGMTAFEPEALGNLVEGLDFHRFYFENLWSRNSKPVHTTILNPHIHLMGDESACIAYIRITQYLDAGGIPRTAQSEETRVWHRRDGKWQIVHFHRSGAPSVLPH
# Effect on: enzyme activity
# Mode: inhibitor
# Concentration: 10 µM
Compound,inhibition
N[C@H](C=O)[C@@H](O)[C@H](O)[C@H](O)CO,-24%
CCOC(=O)C1=C(C)NC(C)=C(C(=O)OCC)C1c1ccccc1/C=C/C(=O)OC(C)(C)C,-5%
COC1=CC(=O)c2ccccc2C1=O,-45%
Oc1cccc(-c2c3nc(c(-c4cccc(O)c4)c4ccc([nH]4)c(-c4cccc(O)c4)c4nc(c(-c5cccc(O)c5)c5ccc2[nH]5)CC4)C=C3)c1,17%
COc1c(C)c(O)cc2[o+]c(-c3ccccc3)ccc12,-18%
CCCCC/C=C/C(=O)O,-7%
CN1[C@@H]2CCC[C@H]1C[C@@H](NC(=O)c1nn(C)c3ccccc13)C2,8%

# Study 4
# Cell line: A-375
# Concentration: 100 µM
# Time: 18 h
Structure (SMILES),viability [%]
Cc1cc(CC(=O)O)n(C)c1C(=O)c1ccc(Cl)cc1,87.6
C[N+](C)(C)C[C@H](O)CC(=O)[O-],91.9
COC(=O)c1ccccc1O,95.3
S=P(N1CC1)(N1CC1)N1CC1,85.5
C[C@]12CCC(=O)C=C1CC[C@@H]1[C@@H]2[C@@H](O)C[C@@]2(C)[C@H]1CC[C@]2(O)C(=O)CO,106
CCOC(=O)[C@H](CCc1ccccc1)N[C@@H](C)C(=O)N1[C@H](C(=O)O)C[C@@H]2CCC[C@@H]21,104
Nc1ccn([C@H]2CC[C@@H](CO)O2)c(=O)n1,97.2
CCCN(CCC)CCc1cccc2c1CC(=O)N2,91.3

# A few entries again (study 4):
Structure (SMILES),viability [%]
Cc1cc(CC(=O)O)n(C)c1C(=O)c1ccc(Cl)cc1,87.6
C[N+](C)(C)C[C@H](O)CC(=O)[O-],91.9
COC(=O)c1ccccc1O,95.3
S=P(N1CC1)(N1CC1)N1CC1,85.5
C[C@]12CCC(=O)C=C1CC[C@@H]1[C@@H]2[C@@H](O)C[C@@]2(C)[C@H]1CC[C@]2(O)C(=O)CO,106
CCOC(=O)[C@H](CCc1ccccc1)N[C@@H](C)C(=O)N1[C@H](C(=O)O)C[C@@H]2CCC[C@@H]21,104
